Assay results collected from several papers.
Parts stem from different laboratories: compare values within a part only.

Study 1
Target: RING finger protein unkempt homolog, zinc fingers 1-6, SBP tag (UNK, Homo sapiens, UniProt Q9C0B0, residues 30-357)
Sequence of UniProt Q9C0B0 (30-357, looked up): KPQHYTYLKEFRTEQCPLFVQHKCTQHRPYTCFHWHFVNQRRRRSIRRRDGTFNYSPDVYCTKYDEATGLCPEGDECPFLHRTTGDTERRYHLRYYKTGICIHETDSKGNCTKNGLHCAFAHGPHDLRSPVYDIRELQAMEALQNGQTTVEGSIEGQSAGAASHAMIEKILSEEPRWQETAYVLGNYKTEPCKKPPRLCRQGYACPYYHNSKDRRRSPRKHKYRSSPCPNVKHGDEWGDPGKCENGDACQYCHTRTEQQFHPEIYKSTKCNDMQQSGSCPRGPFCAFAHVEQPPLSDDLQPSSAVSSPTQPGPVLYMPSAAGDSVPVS
Method: RNA Bind-n-Seq
Form: RNA
Medium: in vitro
Concentration: 100 nM
Setting: RNA with constant flanks, vertebrate orthologous sites, ends assumed
Reference: input RNA pool
Reading: higher = stronger binding
With `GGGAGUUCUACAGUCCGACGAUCCUCACACUUAGUGUGUCCAAAAAUUGCUAUGAGGGUUUGAAACGUUCAAUAGUUUUCACGUAGAACUACGCUGGCAGGUGCUCAAGUACCAUCAUAGCAAUAUCGAAUACUGUCACAAUACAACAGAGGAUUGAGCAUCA` the bound/input enrichment was 0.966 ratio.
`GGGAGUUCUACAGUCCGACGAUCGUGAGGGUCUACUGACCACUCACUGUUAUGUCUGGUAUCUGUAAACACUCUUUUUGUUCUUAGUCUUUUUCUUGUAUAAUUGAUGUUCUUUAAAAUUGUUAAUGUAUAACAGGGCUUAUGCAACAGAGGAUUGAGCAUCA` has a bound/input enrichment of 1.94 ratio.
`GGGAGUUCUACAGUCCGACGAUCUAAGAAUUGGAAGAAUUGUAUAGGAGGCAGAAGUCAAAAAGUAGAAGCAGUUUGGAAGAGUAGUUACAAAUAUCAAGAGCCAGGUGGCUAAAAGAUGGAGCUAUAGGUCAUGGAAGCUCACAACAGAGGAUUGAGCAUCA` has a bound/input enrichment of 0.858 ratio.
The bound/input enrichment of `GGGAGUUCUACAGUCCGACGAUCUUUUAUUGAUCAGGUCUGUAAAUGUGUACUAAAAAAAUCAGAGUUUAUUUAUGAAUUGAAUAGUUUAUUUAAAAAGAAGGUCUUUCCUCAUCCAUAUUGUGGUAUGCAUUAAUUCCAUUUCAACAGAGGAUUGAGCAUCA` is reported as 0.421 ratio.
For `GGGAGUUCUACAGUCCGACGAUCGAAACUCCCCAUUGUCACUGAGAACCACCAAAUCUGACUUUUACAUUUGGUCUCAGAAUUUAGGUUCCUGCCCUGUUGGUUUUUUUUUUUUUUUUAAACAGUUUUCAAAAGUUCUUAAAGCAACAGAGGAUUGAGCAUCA`, the bound/input enrichment was 0.873 ratio.

Study 2
Target: Ras GTPase-activating protein-binding protein 1, full length (G3BP1, Homo sapiens, UniProt Q13283)
Sequence of UniProt Q13283 (whole entry, looked up): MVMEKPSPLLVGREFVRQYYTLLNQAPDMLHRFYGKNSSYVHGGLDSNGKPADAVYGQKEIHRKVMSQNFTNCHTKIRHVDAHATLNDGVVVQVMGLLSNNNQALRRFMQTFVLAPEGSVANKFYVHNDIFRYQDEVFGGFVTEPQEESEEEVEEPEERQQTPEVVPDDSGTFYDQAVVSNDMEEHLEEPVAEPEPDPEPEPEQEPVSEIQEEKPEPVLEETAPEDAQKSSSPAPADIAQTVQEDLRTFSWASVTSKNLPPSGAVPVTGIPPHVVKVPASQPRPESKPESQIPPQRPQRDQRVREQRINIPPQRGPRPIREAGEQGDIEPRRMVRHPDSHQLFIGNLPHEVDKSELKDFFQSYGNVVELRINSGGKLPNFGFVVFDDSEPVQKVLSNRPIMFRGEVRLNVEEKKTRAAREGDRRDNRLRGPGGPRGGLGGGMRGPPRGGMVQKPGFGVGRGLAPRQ
Method: RNA Bind-n-Seq
Form: RNA
Medium: in vitro
Concentration: 200 nM
Setting: whole 134-nt RNA, ends assumed
Added: 150 mM KCl
Reference: input library
Reading: higher = stronger binding
The log2 enrichment of `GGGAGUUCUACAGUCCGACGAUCGAGAGCGAGGUGGCUUCAAUAAGCCUGGUGGUAAGUUUUUGAGUAUUACCAUAGAUAGUGUUUAAAAAAAAAUGCAGUCAGUUUUUAGAAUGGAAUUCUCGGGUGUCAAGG` is reported as -0.87.
With `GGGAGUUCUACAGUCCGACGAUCUCAAGUCCUGUGCUACACAUCGUAUGUACCGAAUCGGGAAAGGGAAAGGAAAGGGAAAGUAUUAUGUUACGCCGUUCGGAUCUGCACUUCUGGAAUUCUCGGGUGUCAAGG` the log2 enrichment was -0.717.
`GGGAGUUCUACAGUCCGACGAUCGCAGGAAGUAAAAACAAAUGGAAAUGCUUCGGAUAAUGGCAGGGGUGGGGGUUGCUAAGGAAAGGGUGGGAUGGGAGUGGGUAAAGAGUUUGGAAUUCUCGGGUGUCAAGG` gave a log2 enrichment of 0.793.
`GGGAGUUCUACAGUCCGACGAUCGCAGGAAGUAAAAACAAAUGGAAAUGCUUAGGAUAGUGGCAGGGGUGGGGGUUGCUAAGGAAAGGGUGGGAUGGGAGUGGGUAAAGAGUUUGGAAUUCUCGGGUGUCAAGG` gave a log2 enrichment of 0.852.
The log2 enrichment of `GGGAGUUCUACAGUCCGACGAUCGUCCUGUGCUACACAUCGUAUGUACCGAAUCGGGCCCCCGGGGCCCCCGGGGCCCCCGGAAAGUAUUAUGUUACGCCGUUCGGAUCUGCAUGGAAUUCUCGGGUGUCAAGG` is reported as 0.374.
The log2 enrichment of `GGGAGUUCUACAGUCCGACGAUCUCAAGUCCUGUGCUACACAUCGUAUGUACCGAAUCGGGGAAGGAAGGGGAAGGGAAAGUAUUAUGUUACGCCGUUCGGAUCUGCACUUCCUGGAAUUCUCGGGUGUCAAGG` is reported as 0.882.

Study 3
Target: RNA binding protein fox-1 homolog 2, RRM domain, GST-SBP tag (RBFOX2, Homo sapiens, UniProt O43251-10, residues 100-194)
Method: RNA Bind-n-Seq
Form: RNA
Medium: in vitro
Concentration: 365 nM
Setting: natural RNA segment, single round, ends assumed
Reference: no-protein control
Reading: higher = stronger binding
Residues (chain): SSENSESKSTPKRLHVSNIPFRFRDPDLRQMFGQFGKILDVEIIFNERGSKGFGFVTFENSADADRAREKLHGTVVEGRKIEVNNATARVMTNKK
Under “RBNS enrichment (R)”, `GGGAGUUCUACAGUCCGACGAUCGUUUGUAAAAUAUUUGUUCGUGCUCUUUUUGUUGUUGUUGUUGUUGUUAGGCCCACCACACGAGUUUACAGGUCUGUGGCAAUACUCUUAACUCAGUAAAGAUGGAAGUGUGGAAUUCUCGGGUGCCAA` is recorded as 0.467.
`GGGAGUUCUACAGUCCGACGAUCUCAAAGCUCUUUUAAUGUAAUGGACAAAAAUAAGAUAUGAGAAUAUUAUUGAUGAAUUUUCAUAAGGUGGAAUUGAUCUUAAUCUACUAACAGAGAAGGGUAGACAGUUUUGGAAUUCUCGGGUGCCAA` — result for “RBNS enrichment (R)”: 0.973.
`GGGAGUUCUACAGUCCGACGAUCCUAAGGUCAGAAGGGUUAACUCAACUGUCUAUUGUCACAUGAUGAAUAAAUAGAUGAAGUGAGAUACAAAGCUGGGUUUGAUUCAAAGCCCUUACUUUCCUAAUUAAACUUGGAAUUCUCGGGUGCCAA`: “RBNS enrichment (R)” 0.335.
Under “RBNS enrichment (R)”, `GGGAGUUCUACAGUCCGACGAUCGCUCUCUUCUCCUGCAAGCGUAGUCUUCACAGGGAGUGGCUUCCUGACAUUUUUUUCAGUUAUGUGAAUGAAUGGAAACCAACAGCUGCUGCAAACACUGUUUUUCCAAGUGGAAUUCUCGGGUGCCAA` is recorded as 0.447.
Under “RBNS enrichment (R)”, `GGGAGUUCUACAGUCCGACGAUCACUGACUUAAAUCAAAUUUCCCUGACAUACAUUUUUUUUAAUCUGUGCCAAAAAUGUGUUUUCAAAGAAAAUCUUAUUUUCAUACUCAAGACUUUGUACCGUCACUCAUUUGGAAUUCUCGGGUGCCAA` is recorded as 0.461.

Other studies, line by line
The fold induction of `PhoQ, residues 284 288 289 292 302 303 AEGLLW` is reported as 0.407 (PhoP, residues 12 14 15 18 19 SGWQI (Escherichia coli, UniProt P23836); Sort-seq, item: YFP reporter; E. coli; PhoQ-PhoP variant library, added: 10 µM Mg2+; reference: high Mg2+ state, higher = stronger signaling).

Repeated from above (study 2):
With `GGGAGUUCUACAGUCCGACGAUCUCAAGUCCUGUGCUACACAUCGUAUGUACCGAAUCGGGAAAGGGAAAGGAAAGGGAAAGUAUUAUGUUACGCCGUUCGGAUCUGCACUUCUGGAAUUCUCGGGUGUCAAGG` the log2 enrichment was -0.717.
`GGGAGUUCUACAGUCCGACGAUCGCAGGAAGUAAAAACAAAUGGAAAUGCUUCGGAUAAUGGCAGGGGUGGGGGUUGCUAAGGAAAGGGUGGGAUGGGAGUGGGUAAAGAGUUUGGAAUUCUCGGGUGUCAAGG` gave a log2 enrichment of 0.793.
